# Measured values collected from several papers.
# Each numbered part is a random draw from the data of one study; scales do not carry over between parts. Several values in a cell are separate wells, animals, samples, runs or records.
# Chain of UniProt Q9UK32 (whole entry, looked up): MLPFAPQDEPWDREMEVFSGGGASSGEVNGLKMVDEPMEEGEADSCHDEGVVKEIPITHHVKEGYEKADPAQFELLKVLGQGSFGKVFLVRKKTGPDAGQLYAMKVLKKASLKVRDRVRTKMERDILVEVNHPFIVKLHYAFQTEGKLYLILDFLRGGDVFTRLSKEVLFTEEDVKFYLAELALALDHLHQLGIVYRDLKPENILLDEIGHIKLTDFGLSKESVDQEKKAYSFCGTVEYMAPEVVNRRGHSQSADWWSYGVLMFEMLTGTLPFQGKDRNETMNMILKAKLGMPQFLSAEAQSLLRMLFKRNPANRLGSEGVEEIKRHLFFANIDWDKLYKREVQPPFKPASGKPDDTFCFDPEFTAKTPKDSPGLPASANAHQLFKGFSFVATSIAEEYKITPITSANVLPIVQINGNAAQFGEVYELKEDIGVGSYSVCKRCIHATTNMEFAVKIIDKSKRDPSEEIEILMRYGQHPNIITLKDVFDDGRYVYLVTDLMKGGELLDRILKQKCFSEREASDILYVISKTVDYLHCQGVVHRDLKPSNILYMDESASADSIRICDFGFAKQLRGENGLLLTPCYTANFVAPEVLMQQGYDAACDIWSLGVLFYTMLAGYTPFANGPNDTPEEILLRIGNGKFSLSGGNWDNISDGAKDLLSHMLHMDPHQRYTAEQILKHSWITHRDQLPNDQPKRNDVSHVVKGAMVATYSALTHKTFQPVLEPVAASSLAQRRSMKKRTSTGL
# Chain of UniProt O00238 (whole entry, looked up): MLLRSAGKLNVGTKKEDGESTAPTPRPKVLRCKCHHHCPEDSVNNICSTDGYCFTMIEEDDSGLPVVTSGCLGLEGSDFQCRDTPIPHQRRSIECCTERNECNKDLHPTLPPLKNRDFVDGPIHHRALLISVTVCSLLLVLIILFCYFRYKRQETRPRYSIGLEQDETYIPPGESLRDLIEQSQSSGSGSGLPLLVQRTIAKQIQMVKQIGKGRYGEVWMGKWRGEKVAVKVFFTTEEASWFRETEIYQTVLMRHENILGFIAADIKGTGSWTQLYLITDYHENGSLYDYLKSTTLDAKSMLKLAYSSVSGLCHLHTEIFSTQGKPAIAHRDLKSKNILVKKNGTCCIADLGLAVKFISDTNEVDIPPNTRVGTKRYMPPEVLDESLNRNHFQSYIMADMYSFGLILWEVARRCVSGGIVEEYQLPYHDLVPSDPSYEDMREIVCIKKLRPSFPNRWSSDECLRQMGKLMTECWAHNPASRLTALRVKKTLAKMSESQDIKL
# Chain of UniProt P19784 (whole entry, looked up): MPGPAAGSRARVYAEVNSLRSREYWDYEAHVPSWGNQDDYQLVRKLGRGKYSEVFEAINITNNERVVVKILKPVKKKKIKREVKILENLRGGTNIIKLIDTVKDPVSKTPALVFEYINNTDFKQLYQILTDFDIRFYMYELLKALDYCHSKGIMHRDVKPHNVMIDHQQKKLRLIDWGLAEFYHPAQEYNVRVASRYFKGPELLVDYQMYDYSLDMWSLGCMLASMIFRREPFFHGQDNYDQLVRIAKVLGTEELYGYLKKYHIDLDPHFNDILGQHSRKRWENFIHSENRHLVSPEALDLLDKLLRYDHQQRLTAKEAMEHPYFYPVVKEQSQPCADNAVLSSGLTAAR
# Chain of UniProt Q9H0K1 (whole entry, looked up): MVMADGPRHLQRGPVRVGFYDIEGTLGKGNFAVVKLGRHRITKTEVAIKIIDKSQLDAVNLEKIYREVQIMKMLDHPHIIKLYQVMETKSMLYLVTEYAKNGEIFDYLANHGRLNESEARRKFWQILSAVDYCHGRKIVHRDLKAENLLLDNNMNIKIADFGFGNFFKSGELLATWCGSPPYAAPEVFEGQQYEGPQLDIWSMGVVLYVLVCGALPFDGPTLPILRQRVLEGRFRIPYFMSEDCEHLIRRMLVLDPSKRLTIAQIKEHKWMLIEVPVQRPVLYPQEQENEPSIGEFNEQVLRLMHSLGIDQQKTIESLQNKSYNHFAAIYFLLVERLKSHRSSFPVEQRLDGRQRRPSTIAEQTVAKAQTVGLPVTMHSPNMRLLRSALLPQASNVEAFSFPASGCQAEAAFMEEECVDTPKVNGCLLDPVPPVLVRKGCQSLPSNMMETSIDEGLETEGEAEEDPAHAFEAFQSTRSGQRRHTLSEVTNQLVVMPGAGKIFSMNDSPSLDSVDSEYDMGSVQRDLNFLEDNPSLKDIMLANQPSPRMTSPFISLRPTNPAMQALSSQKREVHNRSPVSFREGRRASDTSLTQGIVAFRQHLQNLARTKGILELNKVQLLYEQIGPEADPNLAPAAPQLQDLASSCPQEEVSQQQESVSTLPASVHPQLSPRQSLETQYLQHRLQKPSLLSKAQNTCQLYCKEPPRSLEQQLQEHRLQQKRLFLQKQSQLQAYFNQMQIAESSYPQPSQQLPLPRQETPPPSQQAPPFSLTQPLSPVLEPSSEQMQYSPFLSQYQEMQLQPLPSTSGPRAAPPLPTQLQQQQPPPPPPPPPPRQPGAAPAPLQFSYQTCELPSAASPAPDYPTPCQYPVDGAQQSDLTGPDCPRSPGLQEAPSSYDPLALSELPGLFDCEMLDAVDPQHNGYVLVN
# Chain of UniProt Q14004 (whole entry, looked up): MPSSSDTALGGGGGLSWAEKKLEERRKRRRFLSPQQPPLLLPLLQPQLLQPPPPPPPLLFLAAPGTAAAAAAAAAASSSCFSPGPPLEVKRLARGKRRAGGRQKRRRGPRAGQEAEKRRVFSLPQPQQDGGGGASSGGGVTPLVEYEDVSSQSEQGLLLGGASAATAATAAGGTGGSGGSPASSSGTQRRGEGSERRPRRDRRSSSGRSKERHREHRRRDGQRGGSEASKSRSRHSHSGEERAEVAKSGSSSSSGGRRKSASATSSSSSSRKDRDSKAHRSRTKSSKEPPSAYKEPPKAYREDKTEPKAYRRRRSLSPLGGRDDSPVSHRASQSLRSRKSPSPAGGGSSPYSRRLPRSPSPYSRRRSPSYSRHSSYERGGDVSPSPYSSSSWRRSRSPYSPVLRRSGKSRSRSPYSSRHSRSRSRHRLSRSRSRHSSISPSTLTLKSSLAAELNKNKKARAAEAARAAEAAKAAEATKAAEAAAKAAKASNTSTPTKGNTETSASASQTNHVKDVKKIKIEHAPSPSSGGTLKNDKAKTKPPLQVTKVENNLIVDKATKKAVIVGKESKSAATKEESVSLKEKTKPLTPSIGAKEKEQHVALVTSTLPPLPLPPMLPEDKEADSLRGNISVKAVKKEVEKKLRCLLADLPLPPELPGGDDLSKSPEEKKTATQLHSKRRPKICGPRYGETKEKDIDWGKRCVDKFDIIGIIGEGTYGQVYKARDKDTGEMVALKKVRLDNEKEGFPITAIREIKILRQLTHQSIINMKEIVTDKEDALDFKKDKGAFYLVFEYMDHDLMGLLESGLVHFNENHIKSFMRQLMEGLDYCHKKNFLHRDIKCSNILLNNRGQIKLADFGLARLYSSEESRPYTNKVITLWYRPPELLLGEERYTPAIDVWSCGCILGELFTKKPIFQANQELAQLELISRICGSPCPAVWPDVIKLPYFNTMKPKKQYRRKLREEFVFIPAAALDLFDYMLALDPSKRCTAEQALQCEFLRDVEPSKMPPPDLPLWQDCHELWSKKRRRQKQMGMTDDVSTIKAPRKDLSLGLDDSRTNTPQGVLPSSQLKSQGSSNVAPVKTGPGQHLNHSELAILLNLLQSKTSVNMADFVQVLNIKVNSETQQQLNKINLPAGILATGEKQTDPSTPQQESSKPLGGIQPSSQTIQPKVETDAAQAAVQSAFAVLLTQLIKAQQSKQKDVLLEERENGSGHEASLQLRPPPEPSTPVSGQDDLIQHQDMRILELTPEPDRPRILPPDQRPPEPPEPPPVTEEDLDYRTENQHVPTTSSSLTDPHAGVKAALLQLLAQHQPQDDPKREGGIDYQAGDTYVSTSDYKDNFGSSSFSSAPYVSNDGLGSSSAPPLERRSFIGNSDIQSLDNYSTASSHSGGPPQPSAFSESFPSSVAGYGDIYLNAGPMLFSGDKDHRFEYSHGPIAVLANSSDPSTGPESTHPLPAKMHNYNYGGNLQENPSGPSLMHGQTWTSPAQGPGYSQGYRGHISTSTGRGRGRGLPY
# Chain of UniProt Q86YV6 (whole entry, looked up): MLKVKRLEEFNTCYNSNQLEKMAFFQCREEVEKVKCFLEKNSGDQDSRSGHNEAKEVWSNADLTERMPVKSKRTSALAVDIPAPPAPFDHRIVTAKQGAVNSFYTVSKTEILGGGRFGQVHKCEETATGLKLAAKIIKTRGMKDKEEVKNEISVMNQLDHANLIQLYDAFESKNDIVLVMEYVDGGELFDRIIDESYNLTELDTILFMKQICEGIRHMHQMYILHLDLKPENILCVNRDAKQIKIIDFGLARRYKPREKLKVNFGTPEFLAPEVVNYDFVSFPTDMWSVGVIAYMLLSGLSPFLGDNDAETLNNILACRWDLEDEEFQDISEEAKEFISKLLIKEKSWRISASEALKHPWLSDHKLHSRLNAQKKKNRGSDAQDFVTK

# Set 1
# SMILES: COc1ccc(-c2c(Nc3ccccn3)[nH]c3c(C4=CCCCC4)c(-c4ccccc4)nn3c2=O)cc1
# Technique: LC-MS/MS
# Host: human
# Medium: plasma
# Route: oral
test,setting,concentration
measured: S-adenosylmethionine,100 mg once daily,9.98 ng/mL and 18.7 ng/mL and 12.4 ng/mL and 13.7 ng/mL and 29.6 ng/mL
measured: methionine,400 mg once daily,45500 ng/mL and 60800 ng/mL and 127000 ng/mL and 122000 ng/mL and 72500 ng/mL and 106000 ng/mL
measured: methionine,150 mg once daily,196000 ng/mL and 85300 ng/mL and 105000 ng/mL and 224000 ng/mL
,"200 mg twice daily, 6 h",9690 ng/mL
,"50 mg once daily, 1 h",1170 ng/mL
measured: methionine,50 mg once daily,35500 ng/mL and 95400 ng/mL and 89200 ng/mL

# Set 2
# Target: Tyrosine-protein kinase ITK/TSK (ITK, Homo sapiens, UniProt Q08881)
# Chain of UniProt Q08881 (whole entry, looked up): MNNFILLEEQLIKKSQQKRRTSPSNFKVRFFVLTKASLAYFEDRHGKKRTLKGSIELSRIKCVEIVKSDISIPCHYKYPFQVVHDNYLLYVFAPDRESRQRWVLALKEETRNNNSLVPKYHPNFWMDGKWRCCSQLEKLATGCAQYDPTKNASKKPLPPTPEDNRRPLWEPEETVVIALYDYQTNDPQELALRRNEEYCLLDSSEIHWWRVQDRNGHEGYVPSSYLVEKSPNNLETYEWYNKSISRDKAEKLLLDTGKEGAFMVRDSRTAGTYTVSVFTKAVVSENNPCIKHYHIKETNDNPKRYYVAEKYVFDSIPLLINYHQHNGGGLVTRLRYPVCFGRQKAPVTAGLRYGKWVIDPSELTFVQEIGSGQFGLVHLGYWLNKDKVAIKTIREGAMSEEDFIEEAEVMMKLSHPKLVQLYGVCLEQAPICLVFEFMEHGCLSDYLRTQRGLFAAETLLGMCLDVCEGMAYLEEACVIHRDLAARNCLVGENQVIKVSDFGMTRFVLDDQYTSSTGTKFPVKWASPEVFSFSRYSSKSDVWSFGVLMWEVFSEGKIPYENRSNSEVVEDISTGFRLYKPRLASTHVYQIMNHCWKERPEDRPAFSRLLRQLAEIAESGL
# Read-out: enzyme activity
# Action: inhibitor
# Tested at: 0.5 µM
# Reference: control
Structure (SMILES),remaining activity [%]
N#C/C(=C\c1ccc(O)c(O)c1)C(=O)NCc1ccccc1,98.8
Cn1nc2c3c(cccc31)C(=O)c1ccccc1-2,88.3
COc1cc2ncnc(Nc3ccc(O)c(Br)c3)c2cc1OC,92.8
O=C1C(Cl)=C(N2C(=O)CCC2=O)C(=O)c2ccccc21,87.5
O=C1c2ccccc2-c2n[nH]c3cccc1c23,83.2
CN(C)C[C@H]1CCn2c(c(C3=C(c4cn(C)c5ccccc45)C(=O)NC3=O)c3ccccc32)C1,94.9
c1ccc(-c2[nH]ncc2-c2ccnc3ccccc23)nc1,102
N#Cc1c(NC(=O)c2cccc3ccccc23)sc2c1CCCC2,101
C[C@@H]1CCN(C(=O)CC#N)C[C@@H]1N(C)c1ncnc2[nH]ccc12,99.1
O=C(Nc1cccc(Nc2nccc(Nc3cccc(C(F)(F)F)c3)n2)c1)C1CC1,101
CCOc1nc(NC(=O)Cc2cc(OC)ccc2OC)cc(N)c1C#N,105
CCN(CC)C(=O)c1ccc(Nc2nc(OCC3CCCCC3)c3[nH]cnc3n2)cc1,57.3
Cc1nc2cc3nc(-c4cccs4)cnc3cc2n1C,96.7
Nc1cccc(-c2cc3c(Oc4cccc(O)c4)ncnc3[nH]2)c1,102
CN([C@@H](Cc1ccc(OS(=O)(=O)c2cccc3cnccc23)cc1)C(=O)N1CCN(c2ccccc2)CC1)S(=O)(=O)c1cccc2cnccc12,99.4
Cc1cc2ncc(-c3ccccc3)nc2cc1C,100
COc1cc2ncnc(Nc3cccc(Cl)c3)c2cc1OC,93.8
Ic1cccc(CSc2nnc(-c3ccncc3)o2)c1,102
Cc1cn(-c2cc(NC(=O)c3ccc(C)c(Nc4nccc(-c5cccnc5)n4)c3)cc(C(F)(F)F)c2)cn1,102
CCN(CC)CCNC(=O)c1c(C)[nH]c(/C=C2\C(=O)Nc3ccc(F)cc32)c1C,64.3
COc1cc2c(cc1OC)-c1[nH]nc(Nc3cccc(F)c3)c1C2,85.5
O=C(NC(NC(=S)Nc1ccc(F)c([N+](=O)[O-])c1)C(Cl)(Cl)Cl)C(c1ccccc1)c1ccccc1 (centres unmarked),94.9
c1ccc(-c2cnc(Nc3ccc(OCCN4CCCC4)cc3)s2)cc1,85.2

# Set 3
# SMILES: O=C(O)c1cc(-c2ccc(C3CCNCC3)cc2)c2ccc(-c3ccc(C(F)(F)F)cc3)cc2c1
# Read-out: cell-free assay
# Technique: competition with immobilised ligand
# Tested at: 1 µM
target,remaining binding
"Mitogen-activated protein kinase kinase kinase 3 (MAP3K3, Homo sapiens, UniProt Q99759)",83%
"Myosin light chain kinase 2, skeletal/cardiac muscle (MYLK2, Homo sapiens, UniProt Q9H1R3)",100%
"Serine/threonine-protein kinase 10 (STK10, Homo sapiens, UniProt O94804)",100%
"Myosin light chain kinase family member 4 (MYLK4, Homo sapiens, UniProt Q86YV6)",94%
"Serine/threonine-protein kinase SIK2 (SIK2, Homo sapiens, UniProt Q9H0K1)",100%
"Glycogen synthase kinase-3 beta (GSK3B, Homo sapiens, UniProt P49841)",100%
"Proto-oncogene tyrosine-protein kinase Src (SRC, Homo sapiens, UniProt P12931)",100%
"Cyclin-dependent kinase 13 (CDK13, Homo sapiens, UniProt Q14004)",100%
"Ribosomal protein S6 kinase alpha-6, C-terminal kinase domain (RPS6KA6, Homo sapiens, UniProt Q9UK32)",100%
"Casein kinase II subunit alpha' (CSNK2A2, Homo sapiens, UniProt P19784)",100%
"Mitogen-activated protein kinase kinase kinase 1 (MAP3K1, Homo sapiens, UniProt Q13233)",100%
"Serine/threonine-protein kinase SBK1 (SBK1, Homo sapiens, UniProt Q52WX2)",100%
"Epidermal growth factor receptor (EGFR, Homo sapiens, UniProt P00533, del746-750)",100%
"Serine/threonine-protein kinase Nek5 (NEK5, Homo sapiens, UniProt Q6P3R8)",100%
"Bone morphogenetic protein receptor type-1B (BMPR1B, Homo sapiens, UniProt O00238)",100%

# Set 4
# Host: mouse
# Medium: microsomes or S9
# Tested at: 2 µM
# Time: 0.5 h
SMILES,remaining compound [%]
COC(=O)c1coc(C(=O)N(C)c2ccc(C)c(N(C)C)c2)c1,9.36
CN(CC(=O)N1CCCC1)Cc1cc(=O)n(C)c(=O)n1C,97.1
CC(=O)Nc1ccc(Nc2cc(C)nc(-n3nc(C)cc3C)n2)cc1,8.15
CCOc1cc(CNCCc2nc(C)oc2C)ccc1OCC(=O)Nc1ccccc1,4.68
CC(C)C(C(=O)Nc1cccc2[nH]ccc12)N1Cc2ccccc2C1=O (centres unmarked),93.1
c1ccc(-c2nc(Cc3nc4ccccc4[nH]3)no2)cc1,3.87
COC(=O)c1ccc2c(Br)c(O)c(C(=O)OC(C)(C)C)cc2c1,44.3
OC(CN(c1ccccc1)c1ccccc1)Cn1cnc2ccccc21 (centres unmarked),< 1
CN1CC(c2n[nH]c(=O)n2CCc2ccccc2F)CC1=O (centres unmarked),53.6
CC(C)(C)c1ccc(S(=O)(=O)n2ccnc2)cc1,> 99
CCOC(=O)c1cn(-c2nc(Cl)ncc2Cl)cc1C(=O)OCC,0.427
Fc1ccc(CNc2nc3ncc(Br)nc3s2)cc1,28.3
